# Measured values gathered from unrelated publications.
# Organism: Bacillus subtilis
Compound,assay,system,setting,MIC
CC[C@@H](C)[C@H](NC(=O)[C@H](C)NC(=O)[C@H](CCCCN)NC(=O)[C@H](CC(C)C)NC(=O)[C@H](C)NC(=O)[C@@H](NC(=O)[C@H](Cc1c[nH]cn1)NC(=O)[C@H](CC(C)C)NC(=O)[C@@H](NC(=O)[C@@H](NC(=O)[C@H](CCCCN)NC(=O)[C@H](CCCCN)NC(=O)[C@H](C)NC(=O)[C@H](CO)NC(=O)[C@H](CCCCN)NC(=O)[C@H](Cc1ccccc1)NC(=O)[C@@H](NC(=O)[C@H](CCCCN)NC(=O)[C@H](CC(C)C)NC(=O)[C@H](Cc1ccccc1)NC(=O)[C@H](CO)NC(=O)[C@H](CCCCN)NC(=O)[C@H](Cc1c[nH]c2ccccc12)NC(=O)[C@H](CCCCN)NC(C)=O)[C@@H](C)O)[C@@H](C)O)C(C)C)[C@@H](C)O)C(=O)N[C@@H](CO)C(=O)N[C@@H](CO)C(N)=O,broth dilution,"ATCC 49619, Mueller-Hinton broth","24 h, 37 °C",4 µg/mL
CN[C@@H]1[C@H](O)[C@H](NC)[C@H]2O[C@]3(O)[C@H](O[C@@H]2[C@H]1O)O[C@H](C)C[C@@]3(O)CNCc1ccc(Cl)cc1,,ATCC 23857,,3.1 µg/mL
CC(C)C[C@@H]1NC(=O)[C@H](CC(C)C)NC(=O)[C@H](CC(C)C)NC(=O)[C@@H]2CSCC(=O)N[C@@H](CCCCN)C(=O)N[C@@H](CCCCN)C(=O)N[C@@H](CCCCN)C(=O)N[C@@H](CCCCNC(=O)[C@H](CCCCN)NC(=O)[C@H](CCCCN)NC(=O)[C@H](CCCCN)NC(=O)CSC[C@@H](C(=O)N[C@@H](CCCCN)C(N)=O)NC1=O)C(=O)N[C@@H](CCCCN)C(=O)N[C@@H](CC(C)C)C(=O)N[C@@H](CC(C)C)C(=O)N2,,BR 151,18 h,2 µg/mL
CN1C(=O)[C@@H]2NC(=O)[C@@H]3NC(=O)[C@@H](c4ccc(O)cc4)NC(=O)[C@H](NC(=O)C(NCc4cccc(O)c4O)c4ccc(O)cc4)Cc4c[nH]c5cc(ccc45)-c4cc3cc(c4O)Oc3ccc(cc3)C[C@H]1C(=O)N[C@@H](C(=O)O)c1ccc(O)c(c1)Oc1ccc2cc1 (some centres unmarked),,"168, Mueller-Hinton broth",,4 µg/mL
CC[C@H](C)[C@H](NC(=O)[C@H](CCCN)NC(=O)[C@H](CC(N)=O)NC(=O)[C@H](Cc1c[nH]c2ccccc12)NC(=O)[C@H](Cc1ccccc1)NC(=O)[C@H](CCCN)NC(=O)[C@H](CCCCNC(=N)N)NC(=O)[C@H](CC(C)C)NC(=O)[C@H](Cc1c[nH]c2ccccc12)NC(=O)[C@H](CCCN)NC(=O)[C@H](CCCCNC(=N)N)NC(=O)[C@H](CC(C)C)NC(=O)CNC(C)=O)C(=O)N[C@@H](CCCN)C(=O)N[C@@H](CCCCNC(=N)N)C(N)=O,broth microdilution,ATCC 6633,,3.12 µM
CC(C)C[C@@H]1NC(=O)CSC[C@@H]2NC(=O)[C@H](CCCCN)NC(=O)[C@H](CC(C)C)NC(=O)[C@H](CCCCN)NC(=O)[C@H](CCCCNC(=O)[C@H](CC(C)C)NC1=O)NC(=O)[C@H](CC(C)C)NC(=O)[C@H](CC(C)C)NC(=O)CSC[C@@H](C(=O)N[C@@H](CCCCN)C(N)=O)NC(=O)[C@H](CC(C)C)NC(=O)[C@H](CCCCN)NC(=O)[C@H](CCCCN)NC2=O,,BR 151,18 h,64 µg/mL
O=C(c1ccccc1O)c1[nH]c(Cl)c(Cl)c1-n1c(C(=O)c2ccccc2O)cc(Cl)c1Cl,"microbial growth, broth dilution",168,20 h,0.125 µg/mL
CN1C(=O)[C@@H]2NC(=O)[C@@H]3NC(=O)[C@@H](c4ccc(O)cc4)NC(=O)[C@H](NC(=O)C(NCc4cc(O)cc(O)c4)c4ccc(O)cc4)Cc4c[nH]c5cc(ccc45)-c4cc3cc(c4O)Oc3ccc(cc3)C[C@H]1C(=O)N[C@@H](C(=O)O)c1ccc(O)c(c1)Oc1ccc2cc1 (some centres unmarked),,"168, Mueller-Hinton broth",,1 µg/mL
CCCCCCCCCCCCCc1cc(O)cc(O)c1,"microbial growth, broth dilution",168,,1 to 8 µg/mL
CCCCCCCCCC(=O)NCCCC[C@H](NC(=O)[C@H](CCCCN)NC(=O)[C@@H]1CSCC(=O)N[C@@H](CCCCN)C(=O)N[C@@H](CC(C)C)C(=O)N[C@@H](CCCCN)C(=O)NCCCC[C@@H]2NC(=O)[C@H](CCCCN)NC(=O)[C@H](CC(C)C)NC(=O)[C@H](CCCCN)NC(=O)CSC[C@H](NC(=O)[C@H](CC(C)C)NC(=O)[C@H](CC(C)C)NC(=O)[C@H](CCCCN)NC2=O)C(=O)N[C@@H](CC(C)C)C(=O)N[C@@H](CC(C)C)C(=O)N[C@@H](CC(C)C)C(=O)N1)C(N)=O,,BR 151,18 h,1 µg/mL
CC[C@H](C)[C@H](NC(=O)[C@@H](Cc1ccccc1)NC)C(=O)N[C@@H](CO)C(=O)N[C@H](CCCNC(=N)N)C(=O)N[C@@H](C(=O)N[C@H](C(=O)N[C@@H](CO)C(=O)N[C@H]1C(=O)N[C@@H](C)C(=O)N[C@@H](CC(C)C)C(=O)N[C@@H]([C@@H](C)CC)C(=O)O[C@H]1C)[C@@H](C)CC)[C@@H](C)CC,broth microdilution,"ATCC 6051, Mueller-Hinton broth","16 h, 37 °C",≤ 0.0078 µg/mL
CC[C@@H](C)[C@H]1NC(=O)[C@H]([C@@H](C)CC)NC(=O)[C@@H](CCCN)NC(=O)[C@@H](NC(=O)[C@@H](NC(=O)[C@@H](CCC(=O)O)NC(=O)[C@H](CC(C)C)NC(=O)[C@@H]2CSC([C@@H](N)[C@@H](C)CC)=N2)[C@@H](C)CC)CCCCNC(=O)[C@H](CC(N)=O)NC(=O)[C@@H](CC(=O)O)NC(=O)[C@H](Cc2c[nH]cn2)NC1=O,,168,"18 h, 37 °C, with: ZnSO4 0.3 mM",64 µg/mL
CC(C)C[C@H](NC(=O)[C@H](CC(C)C)NC(=O)[C@H](CCCCN)NC(=O)[C@@H]1CCCN1C(=O)[C@H](CC(C)C)NC(=O)[C@H](CC(C)C)NC(=O)[C@H](CCCCN)NC(=O)[C@H](CC(C)C)NC(=O)[C@H](CC(C)C)NC(=O)[C@H](CO)NC(=O)CNC(=O)[C@H](Cc1ccccc1)NC(=O)[C@@H](N)Cc1ccccc1)C(N)=O,broth microdilution,,,3.12 µM
Cc1cc(C)c(SCC2OC(OC3C(N)CC(N)C(OC4OC(CN)C(O)CC4N)C3O)C(O)C(N)C2O)c(C)c1 (centres unmarked),,168,,18.8 µg/mL
NCCCC[C@H](NC(=O)[C@@H]1CSCC(=O)N[C@@H](CCCCN)C(=O)N[C@@H](Cc2ccccc2)C(=O)N[C@@H](CCCCN)C(=O)NCCCC[C@@H]2NC(=O)[C@H](CCCCN)NC(=O)[C@H](Cc3ccccc3)NC(=O)[C@H](CCCCN)NC(=O)CSC[C@H](NC(=O)[C@H](Cc3ccccc3)NC(=O)[C@H](Cc3ccccc3)NC(=O)[C@H](CCCCN)NC2=O)C(=O)N[C@@H](Cc2ccccc2)C(=O)N[C@@H](Cc2ccccc2)C(=O)N[C@@H](Cc2ccccc2)C(=O)N1)C(N)=O,,BR 151,18 h,2 µg/mL
CC[C@H](C)[C@H](NC(=O)[C@H](CCCNC(=N)N)NC(=O)[C@H](CCCNC(=N)N)NC(=O)[C@H](CCCCN)NC(=O)[C@H](CC(N)=O)NC(=O)[C@H](CS)NC(=O)[C@H](Cc1ccc(O)cc1)NC(=O)CNC(=O)CNC(=O)[C@H](CCCNC(=N)N)NC(=O)[C@H](CCCCN)NC(=O)[C@H](CCCNC(=N)N)NC(=O)[C@H](CCCCN)NC(=O)[C@H](CC(C)C)NC(=O)[C@H](CC(C)C)NC(=O)[C@H](CS)NC(=O)[C@H](Cc1c[nH]cn1)NC(=O)[C@H](C)NC(=O)[C@H](C)NC(=O)[C@H](CS)NC(=O)[C@H](C)NC(=O)[C@H](C)NC(=O)[C@H](Cc1c[nH]cn1)NC(=O)[C@H](CC(N)=O)NC(=O)[C@@H](NC(=O)[C@H](CCCCN)NC(=O)[C@@H](NC(=O)CNC(=O)[C@H](CCCCN)NC(=O)[C@H](C)NC(=O)[C@H](CCC(=O)O)NC(=O)[C@H](C)NC(=O)[C@H](CO)NC(=O)[C@H](CC(C)C)NC(=O)[C@H](CC(C)C)NC(=O)[C@H](CC(=O)O)NC(=O)[C@H](CS)NC(=O)[C@@H](NC(=O)[C@@H](N)C(C)C)[C@@H](C)O)C(C)C)C(C)C)C(=O)N[C@@H](CS)C(=O)N[C@H](C(=O)N[C@@H](CS)C(=O)N[C@@H](CCCNC(=N)N)C(=O)N[C@@H](CC(N)=O)C(N)=O)C(C)C,,,,6 µg/mL
CC(C)C[C@H](NC(=O)[C@H](CC(C)C)NC(=O)[C@H](CCCCN)NC(=O)CNC(=O)[C@H](CC(C)C)NC(=O)[C@H](CC(C)C)NC(=O)[C@H](CO)NC(=O)[C@H](CC(C)C)NC(=O)[C@H](CC(C)C)NC(=O)[C@@H]1CCCN1C(=O)[C@H](CC(C)C)NC(=O)[C@H](CC(C)C)NC(=O)CN)C(N)=O,broth microdilution,,,3.12 µM
CN1C(=O)[C@@H]2NC(=O)[C@@H]3NC(=O)[C@@H](c4ccc(O)cc4)NC(=O)[C@H](NC(=O)C(NCc4ccc(O)c(O)c4O)c4ccc(O)cc4)Cc4c[nH]c5cc(ccc45)-c4cc3cc(c4O)Oc3ccc(cc3)C[C@H]1C(=O)N[C@@H](C(=O)O)c1ccc(O)c(c1)Oc1ccc2cc1 (some centres unmarked),,"168, Mueller-Hinton broth",,4 µg/mL
CC[C@H](C)[C@H](N)C1=N[C@H](C(=O)N[C@@H](Cc2ccccc2)C(=O)N[C@H](CCC(=O)O)C(=O)N[C@H](C(=O)N[C@H]2CCCCNC(=O)[C@H](CC(N)=O)NC(=O)[C@@H](CC(=O)O)NC(=O)[C@H](Cc3c[nH]cn3)NC(=O)[C@@H](Cc3ccccc3)NC(=O)[C@H]([C@@H](C)CC)NC(=O)[C@@H](CCCN)NC2=O)[C@@H](C)CC)CS1,,168,"18 h, 37 °C, with: ZnSO4 0.3 mM",32 µg/mL
CC(C)C[C@@H]1NC(=O)[C@H](CCN)NC(=O)CSC[C@@H]2NC(=O)[C@H](CC(C)C)NC(=O)[C@H](CC(C)C)NC(=O)[C@H](CCN)NC(=O)[C@H](CCCCNC(=O)[C@H](CCN)NC1=O)NC(=O)[C@H](CCN)NC(=O)[C@H](CC(C)C)NC(=O)[C@H](CCN)NC(=O)CSC[C@@H](C(=O)N[C@@H](CCN)C(N)=O)NC(=O)[C@H](CC(C)C)NC(=O)[C@H](CC(C)C)NC(=O)[C@H](CC(C)C)NC2=O,,BR 151,18 h,4 µg/mL

# For quick reference, copied from above:
Compound,assay,system,setting,MIC
CC[C@@H](C)[C@H]1NC(=O)[C@H]([C@@H](C)CC)NC(=O)[C@@H](CCCN)NC(=O)[C@@H](NC(=O)[C@@H](NC(=O)[C@@H](CCC(=O)O)NC(=O)[C@H](CC(C)C)NC(=O)[C@@H]2CSC([C@@H](N)[C@@H](C)CC)=N2)[C@@H](C)CC)CCCCNC(=O)[C@H](CC(N)=O)NC(=O)[C@@H](CC(=O)O)NC(=O)[C@H](Cc2c[nH]cn2)NC1=O,,168,"18 h, 37 °C, with: ZnSO4 0.3 mM",64 µg/mL
CCCCCCCCCC(=O)NCCCC[C@H](NC(=O)[C@H](CCCCN)NC(=O)[C@@H]1CSCC(=O)N[C@@H](CCCCN)C(=O)N[C@@H](CC(C)C)C(=O)N[C@@H](CCCCN)C(=O)NCCCC[C@@H]2NC(=O)[C@H](CCCCN)NC(=O)[C@H](CC(C)C)NC(=O)[C@H](CCCCN)NC(=O)CSC[C@H](NC(=O)[C@H](CC(C)C)NC(=O)[C@H](CC(C)C)NC(=O)[C@H](CCCCN)NC2=O)C(=O)N[C@@H](CC(C)C)C(=O)N[C@@H](CC(C)C)C(=O)N[C@@H](CC(C)C)C(=O)N1)C(N)=O,,BR 151,18 h,1 µg/mL
